Measured values collected from several papers.
Each numbered part is a random draw from the data of one study; scales do not carry over between parts.

Series 1
Target: Histone acetyltransferase KAT6A, winged helix 1, GST fusion (KAT6A, Homo sapiens, UniProt Q92794, residues 1-85)
Method: protein binding microarray
Form: double-stranded DNA, one strand shown
Medium: in vitro
Concentration: not given
Notes: 8-mer, flanks averaged, mean of 2 arrays, mostly near background
Relative to: not given
Reading: higher = stronger binding
Construct (chain): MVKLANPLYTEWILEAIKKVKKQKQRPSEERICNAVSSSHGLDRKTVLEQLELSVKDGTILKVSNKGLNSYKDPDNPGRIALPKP
Sequence	E-score
CCATTTAG	-0.126
GACATATA	0.00108
AATGATAA	-0.109
AGATCGTC	-0.221
CTCGACGA	-0.0109

Series 2
Target: Sal-like protein 4, full length isoform B (SALL4, Homo sapiens, UniProt Q9UJQ4-2, residues 1-616)
Method: universal PBM
Form: double-stranded DNA, one strand shown
Medium: in vitro
Concentration: not given
Notes: 8-mer, flanks averaged, mean of replicates
Reading: higher = stronger binding
Sequence	E-score
GGCAACGA	-0.152
CGGAGCAA	0.0443
AGATCGAG	-0.025
ATTAAGTG	0.231
ACTGAATG	0.101

Series 3
Target: PABPC1L2, full length, GST fusion (mouse, UniProt A0ABA7IW68)
Method: RNAcompete
Form: RNA
Medium: in vitro
Concentration: 20 nM
Notes: 7-mer, probes averaged, single round
Relative to: mean of 7-mers
Reading: higher = stronger binding
Target sequence (chain): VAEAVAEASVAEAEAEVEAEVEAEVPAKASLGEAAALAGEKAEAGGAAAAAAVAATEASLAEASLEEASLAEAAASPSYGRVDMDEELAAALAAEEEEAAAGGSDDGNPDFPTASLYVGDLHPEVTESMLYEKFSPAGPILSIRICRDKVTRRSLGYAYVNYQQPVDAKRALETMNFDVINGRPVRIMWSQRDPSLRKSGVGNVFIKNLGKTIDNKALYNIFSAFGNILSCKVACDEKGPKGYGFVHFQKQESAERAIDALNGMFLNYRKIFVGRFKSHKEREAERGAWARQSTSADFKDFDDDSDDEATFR
Sequence	7-mer Z-score
CUUCUCC	-0.427
UGUUUGC	-0.407
CAUACUU	-0.257
GCUCUAU	-0.186

Single results of other studies
Molecule	target	assay	system	conditions	scale	quantity	result
PhoQ, residues 284 288 289 292 302 303 ALASRC	PhoP, residues 12 14 15 18 19 LYHSL (Escherichia coli, UniProt P23836)	Sort-seq, refers to: YFP reporter	E. coli	PhoQ-PhoP variant library, added: 10 µM Mg2+	relative to: high Mg2+ state, higher = stronger signaling	fold induction	13.5

Some of these lines once more (series 2):
Sequence	E-score
AGATCGAG	-0.025
